Results of several laboratories.
Protocols differ between the studies behind these lines. Several values in a cell are separate wells, animals, samples, runs or records. ± gives the spread as reported.

| SMILES | target or system | assay | test system | setting | scale | measurement | value |
| --- | --- | --- | --- | --- | --- | --- | --- |
| Nc1ncnc2c1ncn2[C@@H]1O[C@H](C[C@@H](N)CC[C@H](N)C(=O)O)[C@@H](O)[C@H]1O | O-methyltransferase (Sorghum bicolor, UniProt A0A1B6PFV1) |  |  | concentration not given, added: RSV+ |  | ΔG of binding | -8.59 kcal/mol |
| C=CC(=O)N1CCC(COCC(=O)N2CCN(c3nc(-c4cnc(N)nc4C(F)F)nc(N4CCOC[C@@H]4C)n3)CC2)CC1 | MAP3K15 (Homo sapiens, UniProt Q6ZN16) | KINOMEscan |  | 1 µM |  | remaining binding | 97% |
| [H]/N=C(/N)NCC(=O)O | SLC6A6 (Homo sapiens, UniProt P31641, Y138A) | binding, microscale thermophoresis |  | 250 µM, room temperature, added: 50 nM labelled protein | higher = more binding | normalised MST signal | -0.0168 |
| CC[C@H](C)[C@@H]1NC(=O)[C@H](C)NC(=O)[C@H]([C@@H](C)CC)NC(=O)[C@H](CCC(N)=O)NC(=O)[C@H](C)NC(=O)[C@H](CCCNC(=N)N)NC(=O)[C@H](C(C)C)NC(=O)[C@H](CC(C)C)NC(=O)[C@H](CCC(=O)O)NC(=O)[C@H](CCCNC(=N)N)NC(=O)CNC(=O)[C@@H](NC(=O)[C@H](CC(C)C)NC(=O)[C@H](CCCCN)NC(=O)[C@@H](NC(=O)[C@@H](NC(=O)[C@H](CCC(=O)O)NC(=O)[C@H](CCC(=O)O)NC(=O)[C@H](CCSC)NC(=O)[C@H](Cc2c[nH]c3ccccc23)NC(=O)[C@H](CO)NC(=O)[C@@H](N)CC(=O)O)C(C)C)[C@@H](C)CC)CSSC[C@@H]2NC(=O)[C@@H](NC(=O)[C@H](CCCCN)NC(=O)[C@H](CC(N)=O)NC(=O)[C@H](C)NC(=O)[C@H](CC(C)C)NC(=O)[C@H](C)NC(=O)[C@H](CO)NC(=O)[C@H](Cc3ccc(O)cc3)NC(=O)[C@H](CC(C)C)NC(=O)[C@H](CCC(N)=O)NC(=O)c3ccc(-c4c5ccc(=[N+](C)C)cc-5oc5cc(N(C)C)ccc45)c(C(=O)[O-])c3)CSSC[C@H](NC(=O)CNC(=O)[C@H](C(C)C)NC(=O)[C@H](Cc3c[nH]cn3)NC2=O)C(=O)N[C@@H]([C@@H](C)O)C(=O)N[C@@H](CCCCN)C(=O)N[C@@H](CCCNC(=N)N)C(=O)N[C@@H](CO)C(=O)N[C@@H](CC(C)C)C(=O)N[C@@H](C)C(=O)N[C@@H](CCCNC(=N)N)C(=O)N[C@@H](Cc2ccccc2)C(=O)N[C@H](C(=O)O)CSSC[C@@H](C(=O)NCC(=O)N[C@@H](CCSC)C(=O)N[C@@H](CO)C(=O)N[C@H](C(=O)N[C@@H](Cc2c[nH]c3ccccc23)C(=O)N[C@@H](CO)C(=O)O)[C@@H](C)O)NC1=O | Relaxin receptor 1 (RXFP1, Homo sapiens, UniProt Q9HBX9, F76A/Y80A) | binding, NanoBRET |  | added: relaxin 10 µM |  | dissociation plateau | 7.04% |
| CC[C@H](C)[C@H](NC(=O)[C@H](CCCCN)NC(=O)[C@@H](NC(=O)[C@H](CCCCN)NC(=O)[C@H](CCCCN)NC(=O)CNC(=O)[C@H](CO)NC(=O)[C@H](C)NC(=O)[C@@H](NC(=O)[C@H](Cc1c[nH]cn1)NC(=O)[C@H](Cc1ccccc1)NC(=O)CN)[C@@H](C)O)C(C)C)C(=O)N[C@@H](C)C(=O)N[C@@H](CCCCN)C(=O)N[C@@H](CCC(=O)O)C(=O)N[C@@H](CO)C(=O)N[C@@H](CC(C)C)C(=O)N[C@@H](CC(=O)O)C(=O)N[C@@H](CCCCN)C(=O)N[C@H](C(=O)N[C@@H](CCCCN)C(=O)N[C@@H](CC(N)=O)C(=O)N[C@@H](Cc1ccccc1)C(=O)N[C@@H](Cc1ccccc1)C(=O)O)C(C)C | human RAD51 F86E monomer | ITC |  | pH 7.4, 25 °C, 5 µM protein |  | ΔH | -11.5 ± 2.5 kcal/mol |
| CC(=O)N[C@H](C(=O)N1C[C@H](O)C[C@H]1C(=O)NCc1ccc(-c2scnc2C)cc1)C(C)(C)SCCCCCCNC(=O)C[C@@H]1N=C(c2ccc(Cl)cc2)c2c(sc(C)c2C)-n2c(C)nnc21 | BRD2/VHL, BD2; with VCB (Homo sapiens, UniProt P25440+P40337) | ternary complex binding, ITC |  | 25 °C, added: VHL-ElonginB-ElonginC titrated into compound:PROTAC:Brd2^BD2 complex |  | −TΔS | -2.5 ± 0.5 kcal/mol |
| O=C(Nc1cccc2c(=O)cc(-c3nnn[nH]3)oc12)c1ccc(OCCCCc2ccccc2)cc1 | Volume-regulated anion channel subunit LRRC8C, part LRRC8A IL1 chimera (LRRC8C, Homo sapiens, UniProt Q8TDW0) | swelling-activated current, inhibitor, whole-cell patch clamp | transfected HCT116 LRRC8-/- cells | 10 µM, low ionic strength, at +100 mV |  | inhibition | 76.3% |
| CC(C)C[C@H](NC(=O)C[C@H](O)[C@H](CC(C)C)NC(=O)[C@H](Cc1c[nH]cn1)NC(=O)CNC(=O)[C@@H](NC(=O)[C@H](C)NC(=O)[C@H](Cc1c[nH]c2ccccc12)NC(=O)[C@H](CCC(N)=O)NC(=O)[C@@H](Cc1ccccc1)NC(=O)COCCOCCNC(=O)CCC(C(=O)O)N1CCN(CC(=O)O)CCN(CC(=O)O)CCN(CC(=O)O)CC1)C(C)C)C(N)=O (some centres unmarked) [lutetium-177 labelled] |  |  | female BALB/c nu/nu mice, lung | intravenous, 50 pmol, 24 h |  | tissue uptake | 0.013 ± 0.004 %ID/g |
| N[C@H](CNC(=O)c1ccc(-c2ccccc2Br)s1)C(=O)O | Glutamate receptor ionotropic, NMDA 1, with GluN2C (Grin1, Rattus norvegicus, UniProt P35439, S688A) | receptor activation | rat | added: glutamate 300 µM |  | log EC50 | -2.29 µM |
| Cn1cc(-c2ccc(-c3cncc(Cl)c3N3CCC4(CCNC4=O)CC3)cc2)cn1 | COLO 205 | gene expression, microarray, measured: ITGB1BP2 mRNA |  | concentration not given, 6 h | reference: untreated cells | log2 fold change | -2.15 |
| C=C1CC/C=C(\C)CC[C@@H]2[C@@H]1CC2(C)C | uncharacterized protein (Spodoptera exigua, UniProt F1CEY0) | binding, competitor, fluorescence displacement |  | 20 µM, pH 7.4, added: 1-NPN 20 µM | reference: 1-NPN alone | relative fluorescence | 75.7% |
| CN1CCN(c2cnc3c(cc(C(=O)NCc4ccc(Cl)cc4)c(=O)n3CC(=O)N3CC(C)(F)C3)n2)C1=O | DNA polymerase catalytic subunit (Human cytomegalovirus, UniProt P08546) | enzyme activity, inhibitor |  |  |  | Hill slope | 1 |
| Nc1nc2c(ncn2[C@@H]2O[C@H](COP(=O)(O)O)[C@@H](O)[C@H]2O)c(=O)[nH]1 | GUK1 (Homo sapiens, UniProt Q16774) | enzyme activity, NADH-coupled |  | 1000 µM, added: NaCl 50 mM |  | reaction velocity | 0.101 µM/s and 0.0964 µM/s and 0.11 µM/s |
| OC[C@H]1O[C@@H](Oc2cc3c(O)cc(O)cc3[o+]c2-c2ccc(O)cc2)[C@H](O)[C@@H](O)[C@@H]1O | Albumin (ALB, Homo sapiens, UniProt P02768) | binding, fluorescence quenching |  | 40 °C |  | Gibbs free energy | -24.5 kJ/mol |
| O=C(O)c1ccc(Nc2ncc3c(n2)-c2ccc(Cl)cc2C(c2c(F)cccc2F)=NC3)cc1 | Fyn(h) | kinase activity |  | 1 µM |  | remaining activity | 31% |
| CC[C@H](C)[C@@H]1NC(=O)[C@H](Cc2ccc(-c3ccccc3)cc2)NC(=O)[C@H](CC(C)C)NC(=O)[C@@H]2CCCN2C(=O)[C@@H](NC(=O)[C@H](CCCNC(=N)N)NC(=O)[C@H](CCCNC(=N)N)NC(C)=O)CSSC[C@@H](C(=O)N[C@@H](CCCNC(=N)N)C(=O)N[C@@H](CCCNC(=N)N)C(N)=O)NC(=O)[C@H](C(C)C)NC(=O)[C@@H]2CCCN2C(=O)[C@H](CC(=O)O)NC(=O)[C@H](Cc2ccc(O)cc2)NC(=O)[C@H](CO)NC1=O | GTPase KRas, GDP-bound (KRAS, Homo sapiens, UniProt P01116, G12D) | affinity selection mass spectrometry |  | mixture library 3, added: protein titration up to 2.5 µM | lower is stronger binding | lowest bound protein concentration | 0.04 µM |
| O=c1ccn([C@@H]2O[C@H](COP(=O)(O)OP(=O)(O)O)[C@@H](O)[C@H]2O)c(=O)[nH]1 | ABO (Homo sapiens, UniProt P16442, G235S/G268A/L266M/R176G/W181E) | methyl-TROSY NMR titration lineshape |  | mutant presaturated with H-disaccharide |  | koff | 650 ± 10 s⁻¹ |

For quick reference, copied from above:
| SMILES | target or system | assay | test system | setting | scale | measurement | value |
| --- | --- | --- | --- | --- | --- | --- | --- |
| CN1CCN(c2cnc3c(cc(C(=O)NCc4ccc(Cl)cc4)c(=O)n3CC(=O)N3CC(C)(F)C3)n2)C1=O | DNA polymerase catalytic subunit (Human cytomegalovirus, UniProt P08546) | enzyme activity, inhibitor |  |  |  | Hill slope | 1 |
